Results pooled from the literature.
Lines come from different studies, so protocols differ. “And” joins repeats or separate records; there may be more than shown. ± gives the spread as reported.

Under “log2 fold change”, Cc1ncsc1-c1ccc(C(C)NC(=O)C2CC(O)CN2C(=O)C(NC(=O)CCCCCCCCCCN2CCCC(Nc3ncc(Cl)c(Nc4ccccc4S(=O)(=O)C(C)C)n3)C2)C(C)(C)C)cc1 (stereo not shown) is recorded as -1.22 (22Rv1; RNA-seq, item: ZNF283 mRNA; concentration not given; relative to: DMSO).
COc1ccc(C(=O)CCc2cc(C(CCc3ccc(O)cc3OC)c3ccc(O)cc3)c(O)cc2OC)cc1 (racemic) has a 5-HEPE level of 131 ± 44 pg/mL (human blood; 1 µM, added: A23187).
CC(=O)[O-].O.[Cu+2].[O-]c1ccc(Br)cc1C=NCCN1CCOCC1 has an inhibition of 61.7% (superoxide scavenging; 200 µM).
For Cc1c(C)c2cccnc2c2ncccc12.O=[N+]([O-])[O-].O=c1c(C=NN=C([S-])Nc2ccccc2)coc2ccccc12.[Cu+2], “supercoiled DNA remaining” read 0% (supercoiled pUC19 DNA; oxidative DNA cleavage; concentration not given, under nitrogen, added: ascorbic acid).
COc1ccc2cc3[n+](cc2c1OCCCOC(=O)c1cscn1)CCc1cc2c(cc1-3)OCO2: “plasma triglyceride reduction” 61.3% (hyperlipidemic hamster; oral gavage, 24 mg/kg daily, 3 weeks).
With Nc1nc(-c2ccccc2)nc2[nH]nc(Nc3c(F)cccc3F)c12 the IC50 was 480 nM (rhinovirus B42; viral cytopathic effect; HeLa).
The remaining binding of Nc1ncc(-c2cc(-c3cnn(CC(F)(F)F)c3)ncc2F)nc1C(=O)NC1CNCC(F)C1 (stereo not shown) is reported as 96% (ERK2; KINOMEscan competition binding; 1 µM; relative to: DMSO control).
For Nc1nc(-c2ccccc2)nc2[nH]nc(Nc3ccc(OC(F)(F)F)cc3)c12, the IC50 was 50 nM (rhinovirus B42; viral cytopathic effect; HeLa).
With C=CC(=O)N1[C@@H](c2ccc3c(c2)OCO3)c2[nH]c3ccccc3c2C[C@H]1C(=O)N1CCN(C)CC1 the relative co-enrichment was 99% (human cyclin E1 wild type-3xFLAG:CDK2; co-IP with TMT proteomics, item: CDK2; concentration not given, P24941; relative to: wild type DMSO).
The IC50 of Nc1nc(-c2ccccc2)nc2[nH]nc(Nc3ccc(F)c(F)c3F)c12 is reported as 10 nM (coxsackievirus B3; viral cytopathic effect; HeLa).
With Cc1ncsc1-c1ccc(CNC(=O)[C@@H]2C[C@H](O)CN2C(=O)[C@@H](NC(=O)CN2CCN(C3CN(CCNC(=O)C[C@@H]4N=C(c5ccc(Cl)cc5)c5c(sc(C)c5C)-n5c(C)nnc54)C3)CC2)C(C)(C)C)cc1 the protein level was 178% and 162% and 174% (Spodoptera frugiperda; degrader, targeted LC-MS, item: BRD3; Sf9; 0.1 µM).
For Cn1cc(-c2cc3c(N4CCC[C@H](C(=O)NCc5ccc(OC(F)(F)F)cc5)C4)ncnc3[nH]2)cn1, the inhibition was 56.1% (NCI-H2228; cell growth or viability, MTT; 0.04 µg/mL, 72 h).
Under “log2 fold change”, COC1CN([C@H]2CC[C@H]([C@@]3(C)Oc4c(Cl)cc(C(=O)NCc5c(SC)cc(C)[nH]c5=O)c(C)c4O3)CC2)C1 is recorded as 2.3 (RNA-seq, item: CFAP43; human, whole blood; dose not given, 24 h; relative to: pretreatment baseline).
N=C(c1ccc([N+](=O)[O-])o1)N1CCC(NC(=O)c2cc(-c3ccc(F)cc3F)on2)(c2nc3ccccc3[nH]2)CC1: “IFNβ mRNA level” “inhibited” (STING pathway; inhibitor, RT-qPCR; mouse iBMDM; concentration not given, 2 h, added: diABZI 500 nM).
Under “log2 fold change”, CN1CCCNC(=O)c2cccc(c2)C(=O)NCCCN(C)CCCNc2cccc3c2C(=O)c2cccc(c2C3=O)NCCC1 is recorded as -1.13 (SAS; RNA-Seq, item: UPF2 mRNA; 1 µM, 6 h; relative to: untreated cells).
With COc1ccc(NC(=O)C2CCCN(c3ncnc4[nH]c(-c5ccc(NC6CCN(C)CC6)cc5C)cc34)C2)cc1 (stereo not shown) the inhibition was 96% (NCI-H2228; cell growth or viability, MTT; 5 µg/mL, 72 h).
The IC50 of CNS(=O)(=O)Nc1nccc(Cc2c(C)c3ccc(Oc4ncccc4F)cc3oc2=O)c1F is reported as 537 nM (MFE-280; cell viability; 7 days).
C=CC(=O)Nc1cccc(Cn2ncc3cnc(Nc4cnn(CCOC)c4)nc32)c1: “percent of control” 89% (SNRK human; binding, KINOMEscan; 100 nM; lower = stronger binding).
The inhibition of O=C(NCc1ccc(OC(F)(F)F)cc1)[C@H]1CCCN(c2ncnc3[nH]c(-c4cc(F)c(F)c(F)c4)cc23)C1 is reported as 11.9% (NCI-H2228; cell growth or viability, MTT; 0.2 µg/mL, 72 h).
CN1CCC[C@]1(C)/C=C/S(=O)(=O)NC(=O)Nc1c2c(cc3c1CCC3)CCC2 gave an IL-1β inhibition of 98.2% (human, whole blood ex vivo; 50 mg twice daily, day 1, 12 h, multiple ascending dose, added: LPS and ATP).
For Nc1nc(-c2ccccc2)nc2[nH]nc(Nc3cccc(Cl)c3)c12, the IC50 was 420 nM (rhinovirus B42; viral cytopathic effect; HeLa).
For C=C(NC(=O)c1csc(-c2nc3c(cc2O)-c2nc(cs2)C(=O)NC(C(C)O)C(=O)NC(=C(C)OC)c2nc(cs2)C(=O)NC2c4nc(cs4)C(=O)NC(COC(=O)c4c5c6c(cccc6n4O)COC(=O)C(OC4CC(C)(O)C(N(C)C)C(C)O4)C2OC5)c2nc-3cs2)n1)C(N)=O (stereo not shown), the bacterial load was 3.96 log CFU/g (Streptococcus pneumoniae; -25, immunocompromised mice, lung infection, lung; 32 mg/kg/day once daily, 24 h post-dose).
CCN(CC)CC(=O)Nc1cccc(-n2cc(-c3ccc4ccc(-c5cn(-c6cccc(NC(=O)CN(CC)CC)c6)nn5)cc4c3)nn2)c1 has a fold regulation of 1.12 (RCC4; PCR angiogenesis array, item: ERBB2; 5 x IC50, 2 h, normoxia; relative to: untreated).
Cc1nn(C)cc1-c1cc2c(N3CCC[C@H](C(=O)NCc4ccc(OC(F)(F)F)cc4)C3)ncnc2[nH]1 gave an inhibition of 30.3% (NCI-H2228; cell growth or viability, MTT; 0.008 µg/mL, 72 h).
The 5-HEPE level of COc1cc(O)ccc1CCC(c1ccc(O)cc1)c1cc2c(c(C)c1O)OC(c1ccc(O)cc1)CC2 (mixture of isomers) is reported as 107 ± 27 pg/mL (human blood; 1 µM, added: A23187).

A few entries again:
COc1ccc2cc3[n+](cc2c1OCCCOC(=O)c1cscn1)CCc1cc2c(cc1-3)OCO2: “plasma triglyceride reduction” 61.3% (hyperlipidemic hamster; oral gavage, 24 mg/kg daily, 3 weeks).
With Nc1nc(-c2ccccc2)nc2[nH]nc(Nc3c(F)cccc3F)c12 the IC50 was 480 nM (rhinovirus B42; viral cytopathic effect; HeLa).
The remaining binding of Nc1ncc(-c2cc(-c3cnn(CC(F)(F)F)c3)ncc2F)nc1C(=O)NC1CNCC(F)C1 (stereo not shown) is reported as 96% (ERK2; KINOMEscan competition binding; 1 µM; relative to: DMSO control).
For Nc1nc(-c2ccccc2)nc2[nH]nc(Nc3ccc(OC(F)(F)F)cc3)c12, the IC50 was 50 nM (rhinovirus B42; viral cytopathic effect; HeLa).
